# Published values pooled from the literature.
# Each line is one published result; not all experiments were run side by side.
SMILES,test,test system,conditions,quantity,result
CSc1cc(C)[nH]c(=O)c1CN1CCc2c(Cl)c3c(c(C)c2C1=O)OC(C)(C1CCC(N(C)C)CC1)O3 (stereo not shown),,"mouse, KARPAS-422 xenograft","oral, 25 mg/kg once daily",time to tumour regression,~5 days
C=CC(=O)Nc1ccc(F)c(-c2ncnc3[nH]cc(C(=O)OCC)c23)c1,,"CD4 T-cell blasts, mouse","dose not given, added at second wave onset, with: IL-2",time to pSTAT5 and pS6 reduction,≤ 30 min
CC1(C)C(/C=C/C2=C(Cl)C(=C/C=C3/N(CCCCCC(=O)O)c4ccccc4C3(C)C)/C[N+](C)(C)C2)=[N+](CCCCCC(=O)O)c2ccccc21,,"mouse, NIT-1 pancreatic tumour","intravenous, 25 nmol, observed over 8 h",time to peak tumour-to-background,8 h
Cc1cc(NC(=O)[C@H](O)c2cc(F)cc(F)c2)ccc1-c1cnc(N)c(C(=O)NC(C)C)c1,refers to: phospho-PERK,"mouse 786-O xenograft, tumour",30 mg/kg,time to pPERK baseline,≤ 8 h
CC(C)(C)ONc1nc(Nc2ccnc(C(F)(F)F)c2)nc(-c2cccc(C(F)(F)F)n2)n1,refers to: 2-hydroxyglutarate,mouse U-87 MG IDH2 R140Q xenograft,"oral, 18.05 and 54.14 mg/kg",time to tumour 2-HG reduction,≤ 0.5 h
Cc1cccc(C)c1Nc1nn(C)c2nc(Nc3ccc4c(c3)CN(CC3CCN(c5ccc6c(c5)C(=O)N(C5CCC(=O)NC5=O)C6=O)CC3)CC4)ncc12 (stereo not shown),,"mouse, TMD8 xenograft","oral, 10 or 30 mg/kg daily, 3 weeks",time to complete regression,≤ 15 days
CC(C)c1cnc(-c2cc(Cl)ccc2F)cc1Nc1ccncc1C(=O)NC(CO)CO,,"mouse, 4T1 tumour, tumour","dose not given, twice daily dosing",time to pSMAD2 inhibition,≤ 1 h
C=CC(=O)Nc1cccc(-c2cnc3[nH]cc(C(=O)NC(C)(C)C)c3n2)c1,,"mouse, NK-S1 xenograft, tumour","ip, 50 mg/kg",time to phospho-STAT3 decrease,8 h
CC(C)(O)c1ccc(N2Cc3c(ccnc3-c3ccc(F)cc3OCC(F)(F)F)C2=O)cc1,refers to: glucosylceramide,"mouse, plasma","oral, 10 mg/kg",time of maximal reduction,8 h
CC1(C)C(=CC=C2C[N+](C)(C)CC(C=CC3=[N+](CCCCCC(=O)O)c4ccccc4C3(C)C)=C2Cl)N(CCCCCC(=O)O)c2ccccc21,NIR imaging,"C57BL/6 mouse, E0771 tumour","intravenous, 25 nmol",time of high tumour contrast,4 h

# Excerpt of the above:
SMILES,test,test system,conditions,quantity,result
CC1(C)C(=CC=C2C[N+](C)(C)CC(C=CC3=[N+](CCCCCC(=O)O)c4ccccc4C3(C)C)=C2Cl)N(CCCCCC(=O)O)c2ccccc21,NIR imaging,"C57BL/6 mouse, E0771 tumour","intravenous, 25 nmol",time of high tumour contrast,4 h
